Experimental data pooled from the literature.
Each line is one published result; not all experiments were run side by side. “And” joins repeats or separate records; there may be more than shown. Numbers after ± are the reported error.
Cell line: HepG2

C#CCOc1c(/C=N/NC(=O)CCl)cc2c3c1C(C)(C)CCN3CCC2(C)C  IC50 (cell growth or viability, ATP luminescence; 24 h): 61.8 µM
c1ccc2c(c1)nc(CNCC13CC4CC(CC(C4)C1)C3)n2CC1CC1  CC50 (cell growth or viability, XTT): 67.3 µg/mL
CC1CCC(C(C)(C)C(=O)Nc2ccc(Oc3ccccc3)cc2)CC1 (stereo not shown)  IC50 (cell growth or viability; 72 h): 14.4 µM
O=C(O)c1cccc(CP(=O)(O)O)n1  EC50 (cytotoxicity, Alamar blue; DMEM without FBS; 24 h, 10% FBS): > 250 µg/mL
NC(=O)c1cc(-c2ccc(C(F)(F)F)nc2)ccc1OCCc1cccc(F)c1  CC50 (galactose medium; 3 (unit not given)): > 100 µM
CC1CCN(C(=O)c2cccc(NC(=O)Nc3ccc(F)cc3)c2)CC1  viability (cell growth or viability, MTT; 100 µM): 96.1%
NC(=O)c1cc(C2=CCOC2)ccc1OCCc1cccc(F)c1  selectivity ratio (3 (unit not given); relative to: CC50 glucose over CC50 galactose): > 3 and ~3
O=C(CCl)Nc1cccc(NC2=NS(=O)(=O)c3ccccc32)c1  IC50 (cell growth or viability, ATP luminescence): 38.2 µM
CC1CCN(C(=O)c2cccc(NC(=O)Nc3ccc(F)cc3F)c2)CC1  viability (cell growth or viability, MTT; 100 µM): 58.9%
COc1ccccc1-c1ccc(OCCc2cccc(F)c2)c(C(N)=O)c1  selectivity ratio (3 (unit not given); relative to: CC50 glucose over CC50 galactose): > 2
Cc1ccc(NC(=O)Nc2cccc(C(=O)N3CCC(C)CC3)c2)cc1  viability (cell growth or viability, MTT; 100 µM): 96.2%
NC(=O)c1cc(-c2ccco2)ccc1OCCc1cccc(F)c1  CC50 (3 (unit not given), human): 41 ± 25 µM
C#Cc1ccc(/C=C/C=N/NC(=O)CCl)cc1  IC50 (cell growth or viability, ATP luminescence; 24 h): 12.1 µM
